Experimental data gathered from unrelated publications.
Each numbered part is a random draw from the data of one study; scales do not carry over between parts. Positions count from the first letter of the parent shown.

Sample 1
Target: Histone acetyltransferase KAT6A, both winged helices, GST fusion (KAT6A, Homo sapiens, UniProt Q92794, residues 1-181)
Technique: protein binding microarray
Form: double-stranded DNA, one strand shown
Sample: in vitro
Concentration: not given
Notes: 8-mer, flanks averaged, mean of 2 arrays, mostly near background
Relative to: not given
Direction: higher = stronger binding
Measurement: E-score
Construct (chain): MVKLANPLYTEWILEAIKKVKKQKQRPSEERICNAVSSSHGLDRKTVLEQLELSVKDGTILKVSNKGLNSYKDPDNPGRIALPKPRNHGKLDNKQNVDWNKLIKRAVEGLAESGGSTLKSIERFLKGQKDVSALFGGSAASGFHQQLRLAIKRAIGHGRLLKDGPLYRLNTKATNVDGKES
GTGTGAGA: -0.154
CGCCTGCA: -0.0295
GAGAGCTC: -0.0923
CCTCAGCC: -0.269
AACAATCA: -0.0866
CTAACTTA: -0.0731
CGATAGCG: 0.228
AAAACATA: 0.0641
ACCGATAA: 0.136
AAGTCACA: -0.133

Sample 2
Target: Centromere-binding protein 1, full length, His-tagged (CBF1, Saccharomyces cerevisiae, UniProt P17106, residues 1-351)
Chain of UniProt P17106 (whole entry, looked up): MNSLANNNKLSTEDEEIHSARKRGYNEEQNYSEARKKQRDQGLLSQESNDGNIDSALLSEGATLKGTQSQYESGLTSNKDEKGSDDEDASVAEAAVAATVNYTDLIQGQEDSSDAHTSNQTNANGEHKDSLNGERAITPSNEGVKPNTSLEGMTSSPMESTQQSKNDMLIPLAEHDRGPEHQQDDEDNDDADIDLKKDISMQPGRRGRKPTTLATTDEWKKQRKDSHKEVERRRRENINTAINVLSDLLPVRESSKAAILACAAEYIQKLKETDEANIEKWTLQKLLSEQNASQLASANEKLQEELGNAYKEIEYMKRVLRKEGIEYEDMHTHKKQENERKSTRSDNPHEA
Technique: competition protein-binding microarray
Form: double-stranded DNA, one strand shown
Sample: in vitro
Concentration: 2 µM
Notes: whole 60-bp probe, lowest competitor level
Added: Pho4 competitor, 0.05 µM
Direction: higher = stronger binding
Measurement: fluorescence intensity
CACTATGAGGATCAACACGTGAAGAGAGCCTTGAAGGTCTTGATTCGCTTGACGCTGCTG: 828 a.u.
CCGAAAAGCAACTGGCACGTTTTGAGCTCGGTGTTTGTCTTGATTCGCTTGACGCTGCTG: 95 a.u.
TTTTTTTGGCTCCATCACGCTCGTCAGTTGAGCTCGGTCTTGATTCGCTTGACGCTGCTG: 74.8 a.u.
CTTTCCCGATCTTGATCTGTGGGTGTAGCACATTTGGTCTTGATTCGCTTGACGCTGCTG: 58.5 a.u.
TTCTTCCAACACCGACACGTTGTTCTCGCTCTCTTCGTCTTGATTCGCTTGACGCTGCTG: 76.8 a.u.
CTAACGAAGGTTTGGTAAGTGGGTGACAAGCCAAGTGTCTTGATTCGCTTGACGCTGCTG: 71 a.u.
CTTTCCCGATCTTTCCACGTGTTTTTAGCACATTTGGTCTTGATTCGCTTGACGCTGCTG: 808 a.u.
GGAGAAACCAATGGGGGCGTGGGTAATGGAAACATTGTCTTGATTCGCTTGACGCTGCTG: 78.2 a.u.
GCACTTAAGGTAAGGCGCATGATGTACCTGTTTTATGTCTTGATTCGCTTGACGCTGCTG: 104 a.u.
GTCTTGTCTCATTGCCGAGTGGGTGTCCCCACTTCAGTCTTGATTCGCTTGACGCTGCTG: 71 a.u.

Sample 3
Target: CCND3, cyclin fold, Cln2 fusion (human)
Technique: yeast growth competition, sequencing
Sample: yeast
Notes: weak parent motif
Relative to: not given
Direction: higher = stronger binding
Measurement: normalised enrichment score
Parent: PKN2 docking peptide (human); VSAVQKLDFSDTM; partner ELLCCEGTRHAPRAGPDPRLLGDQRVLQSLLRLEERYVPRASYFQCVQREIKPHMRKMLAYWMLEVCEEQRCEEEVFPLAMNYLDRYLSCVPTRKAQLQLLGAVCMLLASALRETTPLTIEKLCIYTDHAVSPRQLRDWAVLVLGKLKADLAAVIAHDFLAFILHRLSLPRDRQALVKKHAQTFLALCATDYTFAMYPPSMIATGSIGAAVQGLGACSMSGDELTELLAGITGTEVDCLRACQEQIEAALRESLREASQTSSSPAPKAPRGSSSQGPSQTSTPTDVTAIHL
VSAVQKLGFSDTM [D8G]: 0.109
VSAVQKLDFSDTW [M13W]: 0.134
VIAVQKLDFSDTM [S2I]: 0.122
VSAIQKLDFSDTM [V4I]: 0.157
VSAEQKLDFSDTM [V4E]: 0.138
LSAVQKLDFSDTM [V1L]: 0.118

Mixed results
PhoQ, residues 284 288 289 292 302 303 SASVAL — fold induction (PhoP, residues 12 14 15 18 19 LYHSL (Escherichia coli, UniProt P23836); Sort-seq, measured: YFP reporter; E. coli; PhoQ-PhoP variant library, added: 10 µM Mg2+; relative to: high Mg2+ state, higher = stronger signaling): 8.6
